Experimental data from different studies.
Every numbered part comes from another study and shows a few of its results, in no order.
Sequence of UniProt P50406 (whole entry, looked up): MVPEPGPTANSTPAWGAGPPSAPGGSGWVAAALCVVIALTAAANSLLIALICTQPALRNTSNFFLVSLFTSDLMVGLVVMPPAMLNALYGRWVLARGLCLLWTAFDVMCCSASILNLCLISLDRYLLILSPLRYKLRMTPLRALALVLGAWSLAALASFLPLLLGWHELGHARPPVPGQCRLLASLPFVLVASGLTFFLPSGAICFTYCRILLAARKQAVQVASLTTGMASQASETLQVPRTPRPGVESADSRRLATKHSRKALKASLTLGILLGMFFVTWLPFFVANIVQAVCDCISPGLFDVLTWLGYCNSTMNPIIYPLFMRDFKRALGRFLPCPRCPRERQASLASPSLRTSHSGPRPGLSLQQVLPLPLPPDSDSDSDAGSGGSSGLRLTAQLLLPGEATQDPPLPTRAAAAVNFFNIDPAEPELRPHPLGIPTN
Sequence of UniProt Q8WXR4 (whole entry, looked up): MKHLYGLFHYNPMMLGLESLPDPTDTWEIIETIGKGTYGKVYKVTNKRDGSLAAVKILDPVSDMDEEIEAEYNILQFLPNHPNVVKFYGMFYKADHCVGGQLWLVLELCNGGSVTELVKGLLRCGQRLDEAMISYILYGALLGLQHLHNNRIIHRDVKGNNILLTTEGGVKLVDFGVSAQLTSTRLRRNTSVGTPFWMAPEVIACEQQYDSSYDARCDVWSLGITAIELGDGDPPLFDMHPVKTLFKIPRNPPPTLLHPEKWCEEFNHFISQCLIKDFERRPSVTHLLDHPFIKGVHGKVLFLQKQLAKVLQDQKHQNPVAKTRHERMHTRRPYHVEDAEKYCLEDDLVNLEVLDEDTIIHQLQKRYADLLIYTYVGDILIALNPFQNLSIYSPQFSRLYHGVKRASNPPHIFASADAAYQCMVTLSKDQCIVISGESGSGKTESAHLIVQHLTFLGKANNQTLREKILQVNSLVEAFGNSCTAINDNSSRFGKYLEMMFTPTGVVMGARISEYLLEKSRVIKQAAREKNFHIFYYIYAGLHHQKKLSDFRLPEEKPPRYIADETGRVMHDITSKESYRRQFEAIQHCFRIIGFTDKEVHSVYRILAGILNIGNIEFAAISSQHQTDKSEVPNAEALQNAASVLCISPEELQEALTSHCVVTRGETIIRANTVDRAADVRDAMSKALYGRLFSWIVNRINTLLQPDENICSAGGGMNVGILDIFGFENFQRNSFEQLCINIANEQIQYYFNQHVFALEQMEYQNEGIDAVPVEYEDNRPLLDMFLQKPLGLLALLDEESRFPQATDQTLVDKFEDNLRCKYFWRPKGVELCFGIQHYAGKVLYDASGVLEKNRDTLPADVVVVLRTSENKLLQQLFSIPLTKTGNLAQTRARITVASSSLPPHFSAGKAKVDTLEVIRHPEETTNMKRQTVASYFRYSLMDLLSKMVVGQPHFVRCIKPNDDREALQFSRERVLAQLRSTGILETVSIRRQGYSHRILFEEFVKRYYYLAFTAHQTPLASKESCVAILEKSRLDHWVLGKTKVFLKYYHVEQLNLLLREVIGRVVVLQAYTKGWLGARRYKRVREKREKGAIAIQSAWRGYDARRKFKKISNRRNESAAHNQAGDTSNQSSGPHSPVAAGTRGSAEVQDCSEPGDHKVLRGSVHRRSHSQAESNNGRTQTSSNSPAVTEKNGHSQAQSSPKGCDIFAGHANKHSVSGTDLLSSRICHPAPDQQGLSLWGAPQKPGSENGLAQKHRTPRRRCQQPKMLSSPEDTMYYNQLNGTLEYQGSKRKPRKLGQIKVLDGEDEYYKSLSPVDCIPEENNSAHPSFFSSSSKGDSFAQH
Sequence of UniProt P25021 (whole entry, looked up): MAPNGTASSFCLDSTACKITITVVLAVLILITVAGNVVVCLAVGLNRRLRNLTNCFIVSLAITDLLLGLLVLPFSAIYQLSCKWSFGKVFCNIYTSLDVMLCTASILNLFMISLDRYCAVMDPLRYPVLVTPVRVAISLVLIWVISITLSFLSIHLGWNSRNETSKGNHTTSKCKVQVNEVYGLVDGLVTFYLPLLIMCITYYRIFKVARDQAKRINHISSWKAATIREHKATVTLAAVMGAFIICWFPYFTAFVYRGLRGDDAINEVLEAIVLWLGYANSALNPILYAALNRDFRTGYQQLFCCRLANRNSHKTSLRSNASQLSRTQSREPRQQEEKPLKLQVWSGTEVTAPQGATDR
Sequence of UniProt P34947 (whole entry, looked up): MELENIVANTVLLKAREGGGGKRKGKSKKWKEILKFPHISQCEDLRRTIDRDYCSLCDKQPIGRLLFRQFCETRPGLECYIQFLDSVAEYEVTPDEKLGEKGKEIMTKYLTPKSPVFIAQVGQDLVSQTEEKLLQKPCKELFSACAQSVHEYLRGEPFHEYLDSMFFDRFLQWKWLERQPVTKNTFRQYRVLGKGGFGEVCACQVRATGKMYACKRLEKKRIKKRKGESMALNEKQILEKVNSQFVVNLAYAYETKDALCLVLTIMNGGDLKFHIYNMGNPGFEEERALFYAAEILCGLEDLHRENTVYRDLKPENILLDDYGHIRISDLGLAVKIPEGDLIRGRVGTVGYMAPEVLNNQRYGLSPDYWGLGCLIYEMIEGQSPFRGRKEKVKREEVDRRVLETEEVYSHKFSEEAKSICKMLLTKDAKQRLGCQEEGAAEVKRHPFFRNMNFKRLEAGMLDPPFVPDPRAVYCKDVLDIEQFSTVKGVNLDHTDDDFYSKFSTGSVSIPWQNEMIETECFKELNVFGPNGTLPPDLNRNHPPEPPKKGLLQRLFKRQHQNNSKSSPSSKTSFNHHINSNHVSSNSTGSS
Sequence of UniProt Q99720 (whole entry, looked up): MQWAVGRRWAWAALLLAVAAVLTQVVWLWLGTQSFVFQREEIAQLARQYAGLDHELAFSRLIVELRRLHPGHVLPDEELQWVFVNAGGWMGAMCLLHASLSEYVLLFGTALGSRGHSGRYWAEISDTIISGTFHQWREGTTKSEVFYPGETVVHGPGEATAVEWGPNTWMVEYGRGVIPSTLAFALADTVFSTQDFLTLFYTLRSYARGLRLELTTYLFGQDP
Sequence of UniProt P08173 (whole entry, looked up): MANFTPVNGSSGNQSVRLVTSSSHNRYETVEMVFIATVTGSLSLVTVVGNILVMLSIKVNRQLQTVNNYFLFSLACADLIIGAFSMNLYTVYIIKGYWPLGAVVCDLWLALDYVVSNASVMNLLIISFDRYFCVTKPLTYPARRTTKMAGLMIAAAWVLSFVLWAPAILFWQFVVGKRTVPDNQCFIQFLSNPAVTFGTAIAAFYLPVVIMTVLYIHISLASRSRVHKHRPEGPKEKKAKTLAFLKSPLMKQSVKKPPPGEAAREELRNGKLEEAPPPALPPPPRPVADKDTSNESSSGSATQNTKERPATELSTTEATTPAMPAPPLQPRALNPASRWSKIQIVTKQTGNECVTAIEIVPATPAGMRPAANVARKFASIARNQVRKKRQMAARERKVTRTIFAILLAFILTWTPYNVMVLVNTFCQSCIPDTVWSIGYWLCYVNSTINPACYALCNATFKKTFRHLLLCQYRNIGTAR
Sequence of UniProt P35367 (whole entry, looked up): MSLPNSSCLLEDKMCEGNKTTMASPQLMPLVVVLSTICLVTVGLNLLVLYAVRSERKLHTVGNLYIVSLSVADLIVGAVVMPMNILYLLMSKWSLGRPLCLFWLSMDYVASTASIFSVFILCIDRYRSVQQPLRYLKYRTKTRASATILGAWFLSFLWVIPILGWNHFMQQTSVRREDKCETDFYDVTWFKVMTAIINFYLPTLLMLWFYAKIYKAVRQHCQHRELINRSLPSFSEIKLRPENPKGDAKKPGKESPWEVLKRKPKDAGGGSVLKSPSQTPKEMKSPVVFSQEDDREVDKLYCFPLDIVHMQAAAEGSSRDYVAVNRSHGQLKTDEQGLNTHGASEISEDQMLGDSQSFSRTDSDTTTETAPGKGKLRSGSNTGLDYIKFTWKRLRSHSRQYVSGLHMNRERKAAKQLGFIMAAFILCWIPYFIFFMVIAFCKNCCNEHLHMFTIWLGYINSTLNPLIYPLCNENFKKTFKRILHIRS
Sequence of UniProt Q6P2M8 (whole entry, looked up): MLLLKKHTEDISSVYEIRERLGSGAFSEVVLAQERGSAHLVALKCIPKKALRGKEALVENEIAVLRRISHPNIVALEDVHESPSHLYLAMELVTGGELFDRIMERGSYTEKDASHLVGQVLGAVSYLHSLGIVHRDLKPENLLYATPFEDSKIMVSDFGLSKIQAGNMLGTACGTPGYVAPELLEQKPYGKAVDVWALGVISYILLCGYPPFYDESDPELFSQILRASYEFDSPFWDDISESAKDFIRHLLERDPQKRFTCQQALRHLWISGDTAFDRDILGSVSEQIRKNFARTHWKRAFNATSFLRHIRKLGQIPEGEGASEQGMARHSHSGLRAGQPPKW
Sequence of UniProt Q5BJF2 (whole entry, looked up): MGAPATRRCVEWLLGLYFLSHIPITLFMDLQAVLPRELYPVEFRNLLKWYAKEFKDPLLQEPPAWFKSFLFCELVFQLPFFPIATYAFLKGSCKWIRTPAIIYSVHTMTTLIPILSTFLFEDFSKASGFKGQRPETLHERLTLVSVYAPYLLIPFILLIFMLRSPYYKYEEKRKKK

Set 1
Species: mouse
Medium: microsomes or S9
Tested at: 2 µM
Time: 0.5 h
SMILES | remaining compound [%]
COc1ccc(/C=C2\OC(=O)C=C2c2ccc(O)cc2)cc1 | 57.5
CCC1c2cccn2-c2sc3c(c2CN1C(=O)Nc1ccc(C)cc1C)CCCC3 (centres unmarked) | 1.28
Cc1ccc(-c2nc3[nH]c(CNc4ccc(F)cc4)cc(=O)n3n2)cc1 | 0.103
Cc1ccccc1-c1ccc(-n2cncc2C(=O)N2Cc3ccccc3C2)cc1 | 43.4
CC1(C)Cc2c(sc3c2c(=O)n(C2CCCCC2)c(=O)n3CC(=O)NCc2ccccc2)CO1 | 37.6
CCc1noc(C2(NC(=O)C3CCCC3)CCCCC2)n1 | 72.9
CC1(C)Oc2ccncc2C(N(Cc2ncc[nH]2)c2ccc(Cl)cc2Cl)C1O (centres unmarked) | 12.9
Cc1ccc(C2(c3ccccc3)C=C(c3ccccc3)N(S(=O)(=O)c3ccc(C)cc3)O2)cc1 (centres unmarked) | 0.85
O=c1[nH]ncn2c1cc1cc(Br)ccc12 | 42.1
c1ccc(COc2ccc(-c3n[nH]cc3CN3CCNCC3)cc2)cc1 | 49
COc1cc(=O)n2c(c1C(=O)Nc1ccc(Cl)c(C)c1)CCCC2 | 3.25
CCOC(=O)Cc1c(-c2nc3ccccc3c(=O)[nH]2)[nH]c2ccccc12 | 25.8
Cc1cc(C)n(-c2ncnc3sc4c(c23)CC(C)CC4)n1 (centres unmarked) | 0.092
O=C(c1c2c(nc3ccccc13)C(=O)N(C1CCCCC1)C2)N1CCN(C2CCCCC2)CC1 | 11.5
COc1ccc2ccccc2c1-c1cc(Cn2c(C)c(C)ncc2=O)on1 | 0.039
O=C(c1cc2n(n1)CCN(C(=O)c1cccc3[nH]ccc13)C2)N1CCOCC1 | 87.4
Cc1ccc(Cn2c(=O)c3nn(C)cc3n3c(=O)n(Cc4nc(-c5ccccc5)oc4C)nc23)cc1 | 2.19
O=C(NC1CCCCCC1)N1CCOC2(CCOCC2)C1 | 65.3

Set 2
SMILES: O=C1Nc2ccc(Cl)cc2C1=Cc1cc(Cl)c(O)c(Cl)c1
Read-out: cell-free assay
Tested at: 0.5 µM
target | remaining signal [%]
MAP3K14 (Homo sapiens, UniProt Q99558) | 111
MAP3K8 (Homo sapiens, UniProt P41279) | 93.1
GRK5 (Homo sapiens, UniProt P34947) | 95.8
Myosin-IIIb (MYO3B, Homo sapiens, UniProt Q8WXR4) | 17.4
PNCK (Homo sapiens, UniProt Q6P2M8) | 94.2
Cyclin-dependent kinase 2, with cyclin A (CDK2, Homo sapiens, UniProt P24941) | 99.5
RPS6KB2 (Homo sapiens, UniProt Q9UBS0) | 98.2
EPHA6 (Homo sapiens, UniProt Q9UF33) | 72.8

Set 3
Target: Eukaryotic initiation factor 4A-I (EIF4A1, Homo sapiens, UniProt P60842)
Sequence of UniProt P60842 (whole entry, looked up): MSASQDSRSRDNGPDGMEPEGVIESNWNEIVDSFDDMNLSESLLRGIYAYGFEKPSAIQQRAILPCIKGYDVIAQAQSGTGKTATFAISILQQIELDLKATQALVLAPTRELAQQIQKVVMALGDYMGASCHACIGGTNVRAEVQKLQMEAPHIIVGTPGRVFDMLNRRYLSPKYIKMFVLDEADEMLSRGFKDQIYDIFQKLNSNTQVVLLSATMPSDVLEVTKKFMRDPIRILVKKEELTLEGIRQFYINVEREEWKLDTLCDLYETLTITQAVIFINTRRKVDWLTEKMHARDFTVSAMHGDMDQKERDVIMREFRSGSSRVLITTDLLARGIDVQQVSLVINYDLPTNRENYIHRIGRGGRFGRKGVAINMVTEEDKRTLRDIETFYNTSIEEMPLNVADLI
Read-out: RNA clamping
Method: fluorescence polarization
Tested at: concentration not given
Notes: mean of two replicates
Added: FAM-labelled poly r(AG)8 RNA
Compound | fluorescence polarization change
COc1cc(OC)c2c(c1)O[C@@]1(c3ccc(Br)cc3)[C@H](c3ccccc3)C3=C(O[C@@H]4CCCN4C3=O)[C@@]21O | 58.5 mP
COc1ccc([C@@]23Oc4cc(OC)cc(OC)c4[C@]2(O)C(=O)[C@H](C(=O)NCCCC2(C)OCCO2)[C@H]3c2ccccc2)cc1 | 57.1 mP
COC(=O)[C@H]1C(=O)[C@@]2(NN(C)C)c3c(OC)cc(OC)cc3O[C@@]2(c2ccc(OC)cc2)[C@@H]1c1ccccc1 | 3.6 mP
COc1ccc([C@@]23Oc4cc(OC)cc(OC)c4[C@]2(O)[C@H](O)[C@H](C(=O)c2ccc(C)o2)[C@H]3c2ccccc2)cc1 | 13.8 mP
COC(=O)[C@@H]1[C@@H](c2ccccc2)[C@]2(c3ccc(OC)cc3)Oc3cc(OC)cc(OC)c3[C@@]23NC(C2CCCCC2)=N[C@@]13O | 58.1 mP
COc1ccc([C@@]23Oc4cc(OC)c(F)c(OC)c4[C@]2(O)c2nc4n(c(=O)c2[C@H]3c2ccccc2)CCC4)cc1 | 42.6 mP
COC(=O)[C@@H]1[C@@H](c2ccccc2)[C@]2(c3ccc(OC)cc3)Oc3cc(OC)cc(OC)c3[C@@]23N=C2CCCCN2[C@@]13O | 52.7 mP
COc1ccc([C@@]23Oc4cc(OC)cc(OC)c4[C@]2(O)c2nc(-c4cccc(OCc5ccccc5)c4)[nH]c(=O)c2[C@H]3c2ccccc2)cc1 | 11.1 mP
COC(=O)[C@H]1C(=O)[C@@]2(NCCN(C)C)c3c(OC)cc(OC)cc3O[C@@]2(c2ccc(OC)cc2)[C@@H]1c1ccccc1 | 3.7 mP
COc1cc(OC)c2c(c1)O[C@@]1(c3ccc(Br)cc3)[C@H](c3ccccc3)c3c(nc(-c4ccccc4)[nH]c3=O)[C@@]21O | 16.1 mP
COc1cc(OC)c2c(c1)N(C)[C@]1(c3ccc(Br)cc3)C(=O)[C@@]2(O)[C@H](c2ccccc2)[C@H]1c1ccccc1 | 1.6 mP
C=CCN[C@@]12C(=O)[C@H](C(=O)OC)[C@@H](c3ccccc3)[C@]1(c1ccc(OC)cc1)Oc1cc(OC)cc(OC)c12 | -3.8 mP
COC(=O)[C@@H]1[C@@H](c2ccccc2)[C@]2(c3ccc(OC)cc3)Oc3cc(OC)cc(OC)c3[C@@]23OC(c2ccc(C(F)(F)F)cc2)=N[C@@]13O | 0.8 mP
COc1cc(F)cc2c1[C@]1(O)[C@H](O)[C@H](C#N)[C@@H](c3ccccc3)[C@]1(c1ccc(Br)cc1)O2 | 37.3 mP
COC(=O)[C@@H]1[C@@H](c2ccccc2)[C@]2(c3ccc(OC)cc3)Oc3cc(OC)cc(OC)c3[C@@]23N2CCCC2=N[C@@]13O | 7.3 mP
COc1ccc([C@@]23Oc4cc(O)cc(OC)c4[C@]2(O)[C@H](O)[C@H](C(=O)N(C)OC)[C@H]3c2ccccc2)cc1 | 7.7 mP
COc1ccc([C@@]23Oc4cc(OC)cc(OC)c4[C@]2(O)[C@H](O)[C@H](C(=O)c2ccccc2OC)[C@H]3c2ccccc2)cc1 | 10.6 mP
COc1ccc([C@@]23Oc4cc(OC)cc(OC)c4[C@]2(O)C2=NNC(=O)C2=C3c2ccccc2)cc1 | 10.1 mP
COC(=O)[C@@H]1[C@@H](c2ccccc2)[C@]2(c3ccc(OC)cc3)Oc3cc(OC)cc(OC)c3[C@@]1(O)C2(O)O | 2.1 mP
COC(=O)[C@@H]1[C@@H](O)[C@@]2(O)c3c(OC)cc(OS(=O)(=O)c4ccc(C)cc4)cc3O[C@@]2(c2ccc(Br)cc2)[C@H]1c1ccccc1 | 5 mP

Set 4
Structure (SMILES): C[C@H](c1ccc(F)cc1)N(Cc1ccc(Cl)c(C(=O)O)c1)C(=O)c1cnc2ccccc2c1
Tested at: 10 µM
target | read-out | inhibition [%]
ADRA1A (Homo sapiens, UniProt P35348) | cell-free assay | 11.5
CHRM4 (Homo sapiens, UniProt P08173) | cell-free assay | 4.42
HRH3 (Homo sapiens, UniProt Q9Y5N1) | cell-free assay | -8.13
DRD4 (Homo sapiens, UniProt P21917) | cell-free assay | 14.9
HTR7 (Homo sapiens, UniProt P34969) | cell-free assay | 13.8
ADRA2A (Homo sapiens, UniProt P08913) | cell-free assay | -10.4
SIGMAR1 (Homo sapiens, UniProt Q99720) | cell-free assay | -17.2
HTR6 (Homo sapiens, UniProt P50406) | cell-free assay | 11.3
ADRA1D (Homo sapiens, UniProt P25100) | cell-free assay | 10.1
CHRM2 (Homo sapiens, UniProt P08172) | cell-free assay | 1.24
ADRA1B (Homo sapiens, UniProt P35368) | cell-free assay | -1.36
DRD2 (Homo sapiens, UniProt P14416) | cell-free assay | -0.95
TMEM97 (Homo sapiens, UniProt Q5BJF2) | cell-free assay | -15.4
HRH2 (Homo sapiens, UniProt P25021) | cell-free assay | -12.7
DRD1 (Homo sapiens, UniProt P21728) | cell-free assay | -16
DRD3 (Homo sapiens, UniProt P35462) | cell-free assay | -14.1
HRH1 (Homo sapiens, UniProt P35367) | cell-free assay | -3.13
ADRA2B (Homo sapiens, UniProt P18089) | cell-free assay | 17.7
HRH4 (Homo sapiens, UniProt Q9H3N8) | cell-free assay | 3.41
HTR1B (Homo sapiens, UniProt P28222) | ligand displacement | -7.94
ADRB2 (Homo sapiens, UniProt P07550) | cell-free assay | 24.1
CHRM5 (Homo sapiens, UniProt P08912) | cell-free assay | -1.1

For quick reference, copied from above (set 2):
target | remaining signal [%]
Cyclin-dependent kinase 2, with cyclin A (CDK2, Homo sapiens, UniProt P24941) | 99.5
MAP3K8 (Homo sapiens, UniProt P41279) | 93.1
RPS6KB2 (Homo sapiens, UniProt Q9UBS0) | 98.2
EPHA6 (Homo sapiens, UniProt Q9UF33) | 72.8
Myosin-IIIb (MYO3B, Homo sapiens, UniProt Q8WXR4) | 17.4
MAP3K14 (Homo sapiens, UniProt Q99558) | 111
PNCK (Homo sapiens, UniProt Q6P2M8) | 94.2
GRK5 (Homo sapiens, UniProt P34947) | 95.8
